Measured values from different studies.
Each numbered part is a random draw from the data of one study; scales do not carry over between parts. Changes are numbered by the printed parent chain.

Sample 1
Target: PABPC1L2, full length, GST fusion (mouse, UniProt A0ABA7IW68)
Method: RNAcompete
Form: RNA
Matrix: in vitro
Concentration: 20 nM
Notes: 7-mer, probes averaged, single round
Baseline: mean of 7-mers
Reading: higher = stronger binding
Construct (chain): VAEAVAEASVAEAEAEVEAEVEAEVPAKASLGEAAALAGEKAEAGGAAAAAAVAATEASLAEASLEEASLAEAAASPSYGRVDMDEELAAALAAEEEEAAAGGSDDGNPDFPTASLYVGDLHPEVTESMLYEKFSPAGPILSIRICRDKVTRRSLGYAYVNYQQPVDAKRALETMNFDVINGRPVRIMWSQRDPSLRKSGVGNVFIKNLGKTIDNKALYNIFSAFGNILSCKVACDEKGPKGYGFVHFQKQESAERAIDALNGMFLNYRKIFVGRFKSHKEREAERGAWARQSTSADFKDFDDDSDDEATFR
Strand | 7-mer Z-score
AAACCCU | 0.452
CGAUUGU | -0.219
GGGUCAC | 0.285
AGAAGGU | -0.0228
GGCCCAU | -0.0754
AUCGGAG | 0.184
GUGUACU | -0.22
CGUCAUA | -0.166
GGCAUCG | -0.00108
GUGCUCG | -0.351
GGGAAUU | -0.0482
CAUAGCG | -0.296
GCACCCG | -0.195
CCAGAAU | -0.139
GUGUCUA | -0.251
UAUACAU | -0.0917
AAGGGCA | 0.495
AGUGACG | 0.113
UUCGCUA | -0.315
GUAGACG | -0.0609

Sample 2
Target: Histone acetyltransferase KAT6A, both winged helices, GST fusion (KAT6A, Homo sapiens, UniProt Q92794, residues 1-181)
Method: protein binding microarray
Form: double-stranded DNA, one strand shown
Matrix: in vitro
Concentration: not given
Notes: 8-mer, flanks averaged, mean of 2 arrays, mostly near background
Baseline: not given
Reading: higher = stronger binding
Residues (chain): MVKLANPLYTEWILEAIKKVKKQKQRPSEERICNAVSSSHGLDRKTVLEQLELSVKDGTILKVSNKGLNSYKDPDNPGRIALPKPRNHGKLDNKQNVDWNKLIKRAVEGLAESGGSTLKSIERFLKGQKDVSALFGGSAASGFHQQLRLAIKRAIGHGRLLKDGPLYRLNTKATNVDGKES
Strand | E-score
CTATAATA | -0.0192
CGTTGAAA | 0.084
ACTTACCG | 0.184
AATTGTTC | 0.037
CTAACAAC | -0.0378
ATGCAGAA | -0.0198
AGCTGTTC | -0.0603
CTGCTTAA | -0.0968
TCTTACCA | -0.0899
GCTCAGAA | -0.00167
GCACGCGC | 0.288
CAGAAGAC | -0.145
CGTCACTC | -0.058
GGGCCACC | -0.0793
ACCTAGTC | -0.0799
AACGCGCT | 0.261
AGTCTGAC | -0.21
CAGGGATG | -0.0523
ATAATCCC | -0.0458
ATGCGACG | 0.28
AGGTAAAC | -0.0259
CCAACGTA | -0.134
CGCACTGA | 0.16
CGGCTCAA | 0.118
CATGCATG | -0.0652

Sample 3
Target: RNA binding protein fox-1 homolog 2, RRM domain, GST-SBP tag (RBFOX2, Homo sapiens, UniProt O43251-10, residues 100-194)
Method: RNA Bind-n-Seq
Form: RNA
Matrix: in vitro
Concentration: 365 nM
Notes: natural RNA segment, single round, ends assumed
Baseline: no-protein control
Reading: higher = stronger binding
All sequences stand within: GGGAGUUCUACAGUCCGACGAUC … UGGAAUUCUCGGGUGCCAA
Target sequence (chain): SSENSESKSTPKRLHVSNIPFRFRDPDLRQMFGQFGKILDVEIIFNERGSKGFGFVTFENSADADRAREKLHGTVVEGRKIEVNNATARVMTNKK
Strand | RBNS enrichment (R)
AUGGAAGCUCACCUCUAAGAAAGGGCUGGGCAGAUGGAUUUAUUUUUUCCCACCUGUGAAUAUGUAAAACAAAACCAUUAUCUUUGAGGGAGUUUUUAAUACCAAUGACA | 0.388
AUGUACUGUUAAUUUUUUUUAAUUAAAGUAUAUUAAAGGUUAAAUAAAACAUGACUGUGUCAGACUAUUAAGACUUGAGAAAGGGUUAGUUUUUUUCUUAGGCCUCCCUU | 0.396
UAGUUUUUGAAAUUUUUAUUUAUAUGUAUACUUAGAUGAGUAUUUUAAGCUGUCGACCUUUAGUUUGCCAUACGGGUAGGACUGUAUUUCAUGUUAACAACUGGUGGUAA | 1.18
AUGAAGAAGGGUGUGAAGGCUGAACAAUCAUGGAUUUUUCUGAUCAAUUGUGCUUUAGGAAAUUAUUGACAGUUUUGCACAGGUUCUUGAAAACGUUAUUUAUAAUGAAA | 0.738
UGAUUCCUGUGGUGAGAAGGAAAGCUACAGGACCUGGAGAAGGGGAUGCAGAGGCAGGCCUGCUGACCAACUUGUUGCAAUCACAAAGGUGGGGGUCCUGGUGCAGGCAG | 0.735
UGCAUAGUGUUCACUUUUUAUAGCUGUCCUUUAUUCUAAACAGUAAAGUGGUUUUAUUUCUAUCACAUACCUGCUGUCUCUUGCCUUCUUGUGUCCUGGCUUGGGAGGUU | 0.904
CAUAAUGAUGUGUCUGGCUCAAGCAGCAAUGCUGUCCCUGCUCAGAACUGUGGUCUCUGUGGAGAACCUAGUACAGAGCCUGAGCAAGGCAAUGGACCACCUCCUUUUCC | 0.199
GGGGAGUUUGCUUGGGGCUCUAAGUCUGGGGUAGGUUCUGGGCCUUCACAGAAUGAUGGCAUCUUCCUAAACCCUUCUGGGAGAUGUCUGAGAAGUUGUGAAGGGUCCAG | 0.532
CCCUCCACGCGCUGAUCGAUACUCUGCCUGUGUCCACUCAACUCAGAUUACAAACAGCUCUCUCUGCUGUCUGUGUCCCUUGUGAUACACUUAAACACACUGUCCAAAGA | 0.347
CUUUCUAAACAGCCCCAGUGUUGAAGUCUAUACUUAAUUUUGUUCUGUUCUGUUUUGUUUUCCUGUUUUGUUUGCAAAAUGGUAAGGGGGGUGUUGGGAGGGGAUGGGUG | 1.58
UGCACAGGACUUAUUAACAAGUUAACUCCCAGCCGGCCACUGUGUGCCCUGUACCCUUGCCUCUUCCCAGUGAUAGUGGGCAUAUCCACCUCACCAAGAUAAUUCUGUAC | 0.317
UUAUCAGAACAAUUUUGUUACCAGGUCAGAAAUUGUGUUCUUUGACAACAGAUUGGAUCUGUAAUGUUGAUUAGUCUUUAGCCAUAACCACUACACUUUUAGAAAGACAG | 0.564

Sample 4
Target: Sal-like protein 4, full length isoform A (SALL4, Homo sapiens, UniProt Q9UJQ4, residues 1-1053)
UniProt Q9UJQ4, sequence (whole entry, looked up): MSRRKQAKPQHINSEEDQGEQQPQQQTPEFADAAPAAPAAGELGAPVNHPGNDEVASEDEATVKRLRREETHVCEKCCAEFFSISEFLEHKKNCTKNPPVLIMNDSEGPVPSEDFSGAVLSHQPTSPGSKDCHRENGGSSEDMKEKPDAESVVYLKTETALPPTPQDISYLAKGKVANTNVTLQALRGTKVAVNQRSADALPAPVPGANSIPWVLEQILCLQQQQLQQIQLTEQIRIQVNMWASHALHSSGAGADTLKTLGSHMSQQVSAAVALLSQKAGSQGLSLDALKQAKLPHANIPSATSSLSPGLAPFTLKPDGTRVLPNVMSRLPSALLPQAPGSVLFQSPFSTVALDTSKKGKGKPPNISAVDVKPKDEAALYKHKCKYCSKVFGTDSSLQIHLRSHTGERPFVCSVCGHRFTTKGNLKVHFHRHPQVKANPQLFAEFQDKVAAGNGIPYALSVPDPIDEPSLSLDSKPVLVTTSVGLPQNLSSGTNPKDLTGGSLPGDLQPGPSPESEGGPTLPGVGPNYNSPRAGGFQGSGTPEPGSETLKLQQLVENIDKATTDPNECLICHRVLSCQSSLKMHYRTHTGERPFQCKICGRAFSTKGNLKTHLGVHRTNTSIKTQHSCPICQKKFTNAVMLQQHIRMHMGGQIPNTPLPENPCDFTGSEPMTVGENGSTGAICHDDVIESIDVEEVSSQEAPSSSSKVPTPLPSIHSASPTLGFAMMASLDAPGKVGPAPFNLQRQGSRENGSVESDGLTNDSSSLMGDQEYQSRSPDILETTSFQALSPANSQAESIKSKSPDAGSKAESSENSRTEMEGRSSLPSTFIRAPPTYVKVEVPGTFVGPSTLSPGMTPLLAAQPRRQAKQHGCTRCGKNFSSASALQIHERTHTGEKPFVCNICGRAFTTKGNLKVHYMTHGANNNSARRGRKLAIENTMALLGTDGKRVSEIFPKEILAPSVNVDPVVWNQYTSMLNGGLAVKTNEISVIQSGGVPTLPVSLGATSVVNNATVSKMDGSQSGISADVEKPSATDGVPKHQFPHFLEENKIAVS
Method: universal PBM
Form: double-stranded DNA, one strand shown
Matrix: in vitro
Concentration: 600 nM
Notes: 8-mer, flanks averaged, mean of replicates
Reading: higher = stronger binding
Strand | E-score
AGAGGGCT | -0.201
AATGATTC | 0.287
AGCCCGGG | -0.42
AGACCGCC | -0.197
GGGTGCGA | -0.184
AACAGAGC | -0.00219
CTCTTTGA | 0.0503
GTTGCGCA | -0.128
CGGCGGAG | -0.372
TGTACCAA | 0.00519
AGACGGGA | -0.179
CGCCCGCG | -0.368
ACAACGCC | -0.0916
GAGCTCCC | -0.24
CGCACGCC | -0.217
GCTGCCCA | -0.321
AGCTTATA | 0.276
CCGCACGC | -0.237
CACAACAG | 0.0264

Sample 5
Target: NFE2L3, bZIP domain (human)
Method: DHFR protein complementation
Matrix: yeast
Notes: single substitutions, most at no-binding floor
Baseline: wild-type JUN-FOS pair
Reading: higher = stronger binding
Starting sequence: JUN, bZIP domain (human); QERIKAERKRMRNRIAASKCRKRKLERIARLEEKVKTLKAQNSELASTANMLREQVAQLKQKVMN; partner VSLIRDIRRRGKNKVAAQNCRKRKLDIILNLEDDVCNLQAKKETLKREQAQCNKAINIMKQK
Variant | binding fitness
A40S | -1.47 natural log
A40H | -1.42 natural log
L31A | -1.49 natural log
M51W | -1.53 natural log
E54P | -1.51 natural log
A46D | -1.51 natural log
S47Y | -1.52 natural log
Q41R | -1.51 natural log
A40G | -1.41 natural log
I28F | -1.53 natural log
M51A | -1.38 natural log
L45A | -1.56 natural log
R30F | -1.49 natural log
E54K | -1.22 natural log
E32H | -1.27 natural log
K36M | -1.44 natural log
E54T | -1.58 natural log
R30H | -1.55 natural log
A40L | -1.59 natural log
T48W | -1.41 natural log
V56Q | -1.49 natural log
T48E | -1.37 natural log
A46N | -1.47 natural log
L38F | -1.52 natural log
T37E | -1.53 natural log

A few entries again (sample 1):
Strand | 7-mer Z-score
GGGUCAC | 0.285
AGAAGGU | -0.0228
GGCCCAU | -0.0754
AUCGGAG | 0.184
GUGUACU | -0.22
CGUCAUA | -0.166
GGCAUCG | -0.00108
